{"data": "Assay results pooled from the literature", "PRKAA1": "5'-AMP-activated protein kinase catalytic subunit alpha-1 (PRKAA1, Homo sapiens, UniProt Q13131)", "PRKAA1 with beta1, gamma1": "5'-AMP-activated protein kinase catalytic subunit alpha-1, with beta1, gamma1 (PRKAA1, Homo sapiens, UniProt Q13131)", "note": "Each line is one published result; not all experiments were run side by side. “And” joins repeats or separate records; there may be more than shown. ± marks the error that the study gave."}
{"SMILES": "CCN1CCN(Cc2ccc(C(=O)Nc3ccc(C)c(NCc4cnc5[nH]ccc5c4OC)c3)cc2C(F)(F)F)CC1", "target": "PRKAA1", "assay": "binding, competition with immobilised ligand", "conditions": "1 µM", "endpoint": "remaining binding", "result": "89%"}
{"SMILES": "C=CC(=O)N1CCCC(n2c(=O)c3ncccc3n(Cc3ccc(Oc4ccccc4)cc3)c2=O)C1 (stereo not drawn)", "target": "PRKAA1", "assay": "binding, competition with immobilised ligand", "conditions": "1 µM", "endpoint": "remaining binding", "result": "100%"}
{"SMILES": "COc1cc(Nc2nccc(-c3cnn4nc(OC)ccc34)n2)cc(C(F)(F)F)c1", "target": "PRKAA1", "assay": "binding, competition with immobilised ligand", "conditions": "1 µM", "endpoint": "remaining binding", "result": "80%"}
{"SMILES": "CN1CC[C@@H](COc2cnc(C#N)cc2-c2ccn3nc(NC(=O)C4CC4)cc3c2)C1", "target": "PRKAA1", "assay": "enzyme activity, inhibitor", "conditions": "1 µM", "endpoint": "inhibition", "result": "-1%"}
{"SMILES": "C=CC(=O)N1Cc2nc(-c3cc(-c4cc(Cl)cnc4Cl)c(F)cc3F)n(-c3ccncn3)c2C1", "target": "PRKAA1 with beta1, gamma1", "assay": "kinome panel", "conditions": "1 µM", "endpoint": "inhibition", "result": "14.1%"}
{"SMILES": "CCn1cc(C(=O)O)c(=O)c2c(N)c(F)c(NC3CCCCC3)cc21", "target": "PRKAA1 with beta1, gamma1", "assay": "kinase activity", "conditions": "0.1 µM, with: ATP at Km", "endpoint": "inhibition", "result": "2.2%"}
{"SMILES": "C=CC(=O)Nc1cccc(-c2cnc3[nH]cc(C(=O)NC(C)(C)C)c3n2)c1", "target": "PRKAA1 with beta1, gamma1", "assay": "kinase activity, inhibitor, kinase panel", "conditions": "0.1 µM", "endpoint": "inhibition", "result": "48% and 49%"}
{"SMILES": "O=C(O)CCC(=O)c1cccc(NS(=O)(=O)c2c[nH]c3ncccc23)c1", "target": "PRKAA1", "assay": "kinase activity, radiometric", "conditions": "10 µM", "endpoint": "remaining activity", "result": "90%"}
{"SMILES": "COc1c(Cl)cccc1Nc1c(-c2ccncc2C#C[C@@]2(C)CCCN2C(=O)/C=C/CN(C)C)[nH]c2c1C(=O)NCC2", "target": "PRKAA1", "assay": "binding, competition with immobilised ligand", "conditions": "3 µM", "endpoint": "remaining binding", "result": "93%"}
{"SMILES": "CCCCCCCCCCCCC/C=C/C=O", "target": "PRKAA1", "assay": "competitive isoTOP-ABPP", "system": "Ramos soluble proteome", "conditions": "100 µM, with: iodoacetamide probe", "scale": "baseline: DMSO over compound-treated, higher = stronger cysteine blockade", "endpoint": "isoTOP-ABPP competition ratio", "result": 1.2}
{"SMILES": "Cc1cccc(O[C@H]2CCC[C@@H](C(C)CNCc3ccncc3)C2)c1 (relative stereo)", "target": "PRKAA1 with beta1, gamma1", "assay": "kinome profiling", "conditions": "1 µM", "endpoint": "inhibition", "result": "-2%"}
{"SMILES": "COc1ccc(O)cc1-c1c[nH]c2ncc(-c3cncc(C(=O)N(C)C)c3)cc12", "target": "PRKAA1 with beta1, gamma1", "assay": "KINOMEscan", "conditions": "0.2 µM", "endpoint": "inhibition", "result": "36.6 ± 8.66%"}
{"SMILES": "O=C(Cc1ccc(OCc2ccccc2)cc1)NC1(C(=O)O)CCN(C(=O)c2ccc(-c3cccc(Cl)c3)cc2)CC1", "target": "PRKAA1", "assay": "kinase activity, inhibitor", "conditions": "10 µM, with: ATP at Km", "endpoint": "remaining activity", "result": "98%"}
{"SMILES": "CN1CCN(Cc2ccc(-c3ccc(CO[C@H]4CCC[C@@H]4NC(=O)c4cc(-c5cnn(C)c5)cnc4N)cc3)cc2)CC1", "target": "5'-AMP-activated protein kinase catalytic subunit alpha-1, with beta1, gamma3 (PRKAA1, Homo sapiens, UniProt Q13131)", "assay": "SelectScreen kinase profiling", "conditions": "0.1 µM", "endpoint": "inhibition", "result": "0%"}
{"SMILES": "COCC12C(=O)NC3C4(C(OC)CC1O)C1CC5(O)C(OC)C(O)C(OC(C)=O)(C1C5OC(=O)c1ccccc1)C3(O)C(OC)C24 (stereo not drawn)", "target": "PRKAA1", "assay": "kinase activity, inhibitor, ProQinase kinase profiling", "conditions": "25 µM", "scale": "baseline: control", "endpoint": "remaining activity", "result": "87% and 93%"}
{"note": "Repeated from above:"}
{"SMILES": "CN1CC[C@@H](COc2cnc(C#N)cc2-c2ccn3nc(NC(=O)C4CC4)cc3c2)C1", "target": "PRKAA1", "assay": "enzyme activity, inhibitor", "conditions": "1 µM", "endpoint": "inhibition", "result": "-1%"}
